# Measured values of several laboratories.
# Numbered parts are unrelated; each lists some results of a single study. Values joined by “and” are separate records of one study, mostly repeats; a detail may differ.
# Sequence of UniProt Q00537 (whole entry, looked up): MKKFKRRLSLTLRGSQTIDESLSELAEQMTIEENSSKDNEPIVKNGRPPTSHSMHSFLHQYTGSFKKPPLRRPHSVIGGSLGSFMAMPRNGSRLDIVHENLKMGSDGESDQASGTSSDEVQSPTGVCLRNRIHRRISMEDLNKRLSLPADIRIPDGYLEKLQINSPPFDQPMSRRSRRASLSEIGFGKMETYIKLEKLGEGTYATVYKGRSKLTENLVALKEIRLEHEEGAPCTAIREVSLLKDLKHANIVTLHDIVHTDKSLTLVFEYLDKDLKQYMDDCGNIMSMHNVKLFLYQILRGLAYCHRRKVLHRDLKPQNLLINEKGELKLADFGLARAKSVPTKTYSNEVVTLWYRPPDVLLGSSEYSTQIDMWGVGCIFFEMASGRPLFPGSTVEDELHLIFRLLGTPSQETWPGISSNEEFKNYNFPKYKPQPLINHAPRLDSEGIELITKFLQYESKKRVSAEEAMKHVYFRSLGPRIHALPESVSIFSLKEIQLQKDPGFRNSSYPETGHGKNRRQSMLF
# Sequence of UniProt P42336 (whole entry, unmodified, looked up): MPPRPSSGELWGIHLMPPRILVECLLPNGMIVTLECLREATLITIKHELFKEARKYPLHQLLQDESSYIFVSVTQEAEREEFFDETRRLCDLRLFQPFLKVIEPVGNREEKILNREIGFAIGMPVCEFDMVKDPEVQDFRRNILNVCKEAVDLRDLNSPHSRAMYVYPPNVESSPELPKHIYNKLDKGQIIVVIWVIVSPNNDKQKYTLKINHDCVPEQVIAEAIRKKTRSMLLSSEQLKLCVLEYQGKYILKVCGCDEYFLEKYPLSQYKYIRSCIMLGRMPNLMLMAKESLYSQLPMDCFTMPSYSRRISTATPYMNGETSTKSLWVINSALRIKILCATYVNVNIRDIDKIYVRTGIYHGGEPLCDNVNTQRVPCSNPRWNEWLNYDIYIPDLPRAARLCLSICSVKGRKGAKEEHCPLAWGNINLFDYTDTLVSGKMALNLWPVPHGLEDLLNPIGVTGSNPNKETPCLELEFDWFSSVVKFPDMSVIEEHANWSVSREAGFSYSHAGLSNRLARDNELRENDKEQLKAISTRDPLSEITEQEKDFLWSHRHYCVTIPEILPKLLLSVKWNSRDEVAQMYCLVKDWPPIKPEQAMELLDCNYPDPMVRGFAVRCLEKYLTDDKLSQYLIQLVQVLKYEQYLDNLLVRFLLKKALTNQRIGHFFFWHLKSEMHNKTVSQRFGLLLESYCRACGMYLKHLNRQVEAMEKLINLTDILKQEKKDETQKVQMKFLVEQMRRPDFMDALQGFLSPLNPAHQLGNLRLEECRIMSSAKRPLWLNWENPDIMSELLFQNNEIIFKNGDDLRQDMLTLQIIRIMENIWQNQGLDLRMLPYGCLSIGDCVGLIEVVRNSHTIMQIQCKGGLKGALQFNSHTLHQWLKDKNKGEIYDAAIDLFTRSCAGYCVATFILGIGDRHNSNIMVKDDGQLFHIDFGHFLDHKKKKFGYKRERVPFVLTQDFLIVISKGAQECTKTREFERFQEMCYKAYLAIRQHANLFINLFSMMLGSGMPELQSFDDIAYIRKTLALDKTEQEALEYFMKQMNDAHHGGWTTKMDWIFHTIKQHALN
# Sequence of UniProt Q15759 (whole entry, looked up): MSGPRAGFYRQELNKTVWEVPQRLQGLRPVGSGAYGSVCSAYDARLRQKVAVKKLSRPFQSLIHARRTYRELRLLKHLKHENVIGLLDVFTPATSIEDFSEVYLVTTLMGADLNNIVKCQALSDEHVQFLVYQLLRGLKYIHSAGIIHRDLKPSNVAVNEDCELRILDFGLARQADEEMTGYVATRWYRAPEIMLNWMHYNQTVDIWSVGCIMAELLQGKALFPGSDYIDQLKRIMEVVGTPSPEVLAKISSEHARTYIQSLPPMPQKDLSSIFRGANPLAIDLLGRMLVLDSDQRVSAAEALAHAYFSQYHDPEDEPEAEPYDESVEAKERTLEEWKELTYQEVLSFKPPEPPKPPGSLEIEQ
# Sequence of UniProt P31751 (whole entry, looked up): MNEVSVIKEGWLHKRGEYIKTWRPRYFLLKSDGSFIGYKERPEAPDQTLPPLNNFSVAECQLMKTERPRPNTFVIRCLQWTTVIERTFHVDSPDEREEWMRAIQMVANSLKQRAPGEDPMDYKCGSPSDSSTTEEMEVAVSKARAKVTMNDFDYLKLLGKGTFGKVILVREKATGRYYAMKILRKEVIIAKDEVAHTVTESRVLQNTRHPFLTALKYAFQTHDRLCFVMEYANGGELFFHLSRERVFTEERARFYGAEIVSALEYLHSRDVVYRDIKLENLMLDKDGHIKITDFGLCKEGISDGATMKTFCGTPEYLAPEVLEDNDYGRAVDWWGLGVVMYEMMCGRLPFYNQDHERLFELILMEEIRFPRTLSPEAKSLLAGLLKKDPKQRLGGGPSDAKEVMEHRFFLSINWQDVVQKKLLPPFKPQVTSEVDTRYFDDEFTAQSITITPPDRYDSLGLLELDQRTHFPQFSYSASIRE
# Sequence of UniProt Q13873 (whole entry, looked up): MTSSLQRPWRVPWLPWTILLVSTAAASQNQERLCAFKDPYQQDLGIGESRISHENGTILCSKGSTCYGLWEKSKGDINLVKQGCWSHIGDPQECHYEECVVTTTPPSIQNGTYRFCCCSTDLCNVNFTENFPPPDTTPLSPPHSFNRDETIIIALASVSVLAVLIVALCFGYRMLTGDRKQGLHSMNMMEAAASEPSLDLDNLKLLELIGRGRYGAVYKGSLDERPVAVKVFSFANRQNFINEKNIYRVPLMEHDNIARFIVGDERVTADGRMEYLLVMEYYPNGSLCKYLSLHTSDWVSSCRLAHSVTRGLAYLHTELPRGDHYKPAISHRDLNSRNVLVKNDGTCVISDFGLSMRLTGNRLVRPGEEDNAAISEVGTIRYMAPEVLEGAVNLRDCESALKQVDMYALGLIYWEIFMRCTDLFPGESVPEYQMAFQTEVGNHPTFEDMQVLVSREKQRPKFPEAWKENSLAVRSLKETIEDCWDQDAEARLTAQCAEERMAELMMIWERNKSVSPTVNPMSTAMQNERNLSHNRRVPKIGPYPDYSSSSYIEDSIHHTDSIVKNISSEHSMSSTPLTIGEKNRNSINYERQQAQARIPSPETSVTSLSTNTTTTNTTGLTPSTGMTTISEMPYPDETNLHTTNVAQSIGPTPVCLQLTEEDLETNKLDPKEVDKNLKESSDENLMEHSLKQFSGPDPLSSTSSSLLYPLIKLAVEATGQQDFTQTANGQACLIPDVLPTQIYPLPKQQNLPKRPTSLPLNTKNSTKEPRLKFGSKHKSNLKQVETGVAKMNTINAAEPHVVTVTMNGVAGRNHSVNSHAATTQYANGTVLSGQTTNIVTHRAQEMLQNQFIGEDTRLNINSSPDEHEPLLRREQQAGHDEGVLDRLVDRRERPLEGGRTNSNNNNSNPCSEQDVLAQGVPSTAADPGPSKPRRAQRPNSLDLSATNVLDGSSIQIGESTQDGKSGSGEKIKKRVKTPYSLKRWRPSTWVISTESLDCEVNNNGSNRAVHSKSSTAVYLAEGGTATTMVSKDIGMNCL

# Block 1
# Cell line: HaCaT
# Tested at: 100 µM
# Time: 36 h
Structure (SMILES),viability
CCC(C)(C)c1ccc(CC(C)CN2C[C@@H](C)O[C@@H](C)C2)cc1 (some centres unmarked),5.49%
CC(=O)O[C@H]1CC[C@@]2(C)C(=CC[C@@H]3[C@@H]2CC[C@]2(C)C(c4cccnc4)=CC[C@@H]32)C1,7.5%
Cn1c(=O)cc(N2CCC[C@@H](N)C2)n(Cc2cc(F)ccc2C#N)c1=O,98.6%
Nc1nc2[nH]cc(CCc3ccc(C(=O)O)cc3)c2c(=O)[nH]1,49.8%
Nc1nc(O)c2ncn(COC(CO)CO)c2n1,100%

# Block 2
# Compound: O=C1CCC(N2Cc3cc(C4CCN(Cc5ccccc5)CC4)ccc3C2=O)C(=O)N1 (centres unmarked)
# Sample: plasma
system,setting,plasma concentration
"ICR mouse, male","intravenous, 1 mg/kg, 0.25 h",116 ng/mL and 160 ng/mL
male ICR mice,"oral, 3 mg/kg, 4 h",38.3 ng/mL
"ICR mouse, male","oral, 3 mg/kg, 8 h",4.06 ng/mL and 7.47 ng/mL and 3.59 ng/mL
male ICR mice,"intravenous, 1 mg/kg, 1 h",77.5 ng/mL and 97.8 ng/mL
"ICR mouse, male","oral, 3 mg/kg, 0.25 h",222 ng/mL and 266 ng/mL
male Sprague Dawley rats,"oral, 3 mg/kg, 1 h",37.2 ng/mL
male ICR mice,"intravenous, 1 mg/kg, 6 h",10.7 ng/mL
male ICR mice,"intravenous, 1 mg/kg, 8 h",6.93 ng/mL

# Block 3
# SMILES: O=C(NC[C@@H]1[C@H]2CN(C(=O)OCc3cc(C(F)(F)F)cc(C(F)(F)F)c3)C[C@@H]12)c1ccc2[nH]nnc2c1
# Read-out: cell-free assay
# Method: competition with immobilised ligand
# Tested at: 1 µM
target,remaining binding
"MAPK11 (Homo sapiens, UniProt Q15759)",100%
"PIK3CA (Homo sapiens, UniProt P42336, Q546K)",78%
"AKT2 (Homo sapiens, UniProt P31751)",100%
"CDK17 (Homo sapiens, UniProt Q00537)",100%
"EGFR (Homo sapiens, UniProt P00533, T790M)",78%
"BMPR2 (Homo sapiens, UniProt Q13873)",90%

# Block 4
# Target: Mitogen-activated protein kinase kinase kinase kinase 5 (MAP4K5, Homo sapiens, UniProt Q9Y4K4)
# Sequence of UniProt Q9Y4K4 (whole entry, looked up): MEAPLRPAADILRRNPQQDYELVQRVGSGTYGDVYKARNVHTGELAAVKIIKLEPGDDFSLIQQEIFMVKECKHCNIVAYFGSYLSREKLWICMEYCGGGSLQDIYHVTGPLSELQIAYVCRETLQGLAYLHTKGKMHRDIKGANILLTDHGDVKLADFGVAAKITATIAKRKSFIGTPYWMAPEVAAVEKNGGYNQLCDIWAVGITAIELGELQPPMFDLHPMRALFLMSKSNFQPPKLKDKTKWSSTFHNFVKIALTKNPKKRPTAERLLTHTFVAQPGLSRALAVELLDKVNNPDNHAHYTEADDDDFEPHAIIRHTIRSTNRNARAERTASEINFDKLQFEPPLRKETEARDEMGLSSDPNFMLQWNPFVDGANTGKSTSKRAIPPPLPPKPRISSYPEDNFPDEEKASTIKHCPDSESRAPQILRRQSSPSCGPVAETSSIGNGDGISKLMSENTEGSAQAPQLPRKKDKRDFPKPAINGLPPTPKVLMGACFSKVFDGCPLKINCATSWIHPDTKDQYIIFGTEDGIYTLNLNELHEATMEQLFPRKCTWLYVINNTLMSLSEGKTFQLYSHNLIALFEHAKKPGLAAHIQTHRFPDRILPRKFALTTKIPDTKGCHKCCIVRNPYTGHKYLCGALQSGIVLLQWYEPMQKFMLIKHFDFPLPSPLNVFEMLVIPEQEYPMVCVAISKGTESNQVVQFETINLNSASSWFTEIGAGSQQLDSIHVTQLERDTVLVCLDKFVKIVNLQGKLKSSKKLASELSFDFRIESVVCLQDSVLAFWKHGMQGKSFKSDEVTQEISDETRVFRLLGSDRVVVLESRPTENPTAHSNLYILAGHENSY
# Read-out: enzyme activity
# Mode: inhibitor
# Tested at: 0.5 µM
# Relative to: control
SMILES,remaining activity [%]
CNC(=O)c1cc(Oc2ccc(NC(=O)Nc3ccc(Cl)c(C(F)(F)F)c3)cc2)ccn1,57
COc1cc2ncnc(Nc3ccc(F)c(Cl)c3)c2cc1OCCCN1CCOCC1,80
O=C1NC(=O)C(c2cn(CCCO)c3ncccc23)=C1c1cnccn1,37.5
Nc1[nH]nc2nc3ccccc3nc12,96.8
Cn1c2ccccc2c2c3c(c4c5ccccc5n(CCC#N)c4c21)CNC3=O,4.18
N#CC(C#N)=C(N)/C(C#N)=C/c1ccc(O)cc1,99.6
C#Cc1cccc(Nc2ncnc3cc(OCCOC)c(OCCOC)cc23)c1,95.6
O=C(O)c1ccc2c3c1cccc3c(=O)n1c3ccccc3nc21,47
NCCNc1ncc(C(N)=O)c(Nc2cccc(C(F)(F)F)c2)n1,65.1
CCOC(=O)c1c(C)[nH]c(/C=C2\C(=O)Nc3ccccc32)c1C,84.3
O=C(Nc1cccc(Nc2cc(Nc3cccc(C(F)(F)F)c3)ncn2)c1)C1CC1,96.1
O=C1NC(=O)C(c2cn(CCCn3ccnc3)c3ccccc23)=C1Nc1ccccc1,66.5
Nc1ccc2ncnc(NCCc3ccc(Oc4ccccc4)cc3)c2c1,94.8
Nc1ncnc2n[nH]c(Nc3ccc(F)cc3)c12,52
OCC(O)CCON=C1C(c2c(O)[nH]c3ccccc23)=Nc2ccccc21 (centres unmarked),15.5

# Other studies, line by line
Structure (SMILES),test,system,setting,quantity,result
CC(C)n1cnc(-c2ccc(F)cc2)c1-c1ncc(C(=O)Nc2ccc(N3CCN(C)CC3)cc2)[nH]1,phase 2a clinical trial,patients with idiopathic pulmonary fibrosis,60 mg once daily,patients with Gingivitis TEAE,0%

# For quick reference, copied from above (block 3):
target,remaining binding
"PIK3CA (Homo sapiens, UniProt P42336, Q546K)",78%
"EGFR (Homo sapiens, UniProt P00533, T790M)",78%
